{"data": "Measured values gathered from unrelated publications", "organism": "Staphylococcus aureus", "note": "Each line is one published result; not all experiments were run side by side. ± marks the error that the study gave."}
{"Compound": "CC(C)C1=C(OC(=O)Cc2ccccc2)C(=O)C2=C(C=C[C@H]3C(C)(C)CCC[C@]23C)C1=O", "system": "ATCC 25923, MSSA", "endpoint": "MBC", "result": "< 72.2 µM"}
{"Compound": "O=[N+]([O-])[O-].S=c1[nH]cnc2[nH]cnc12.[Ag+].c1ccc(P(c2ccccc2)c2ccccc2)cc1.c1ccc(P(c2ccccc2)c2ccccc2)cc1", "system": "MTCC 740, DMSO", "setting": "0.1 mL of 50 mg/mL in 8 mm well, 18 to 24 h", "endpoint": "inhibition zone diameter", "result": "12 mm"}
{"Compound": "CCCCCCc1ccc(Oc2ccc(Oc3cccc(=O)[nH]3)cc2)c(O)c1", "system": "RN4220", "setting": "4 x MIC, 1 h exposure, 37 °C", "endpoint": "post-antibiotic effect", "result": "2.04 ± 0.18 h"}
{"Compound": "CC[C@H](C)[C@@H]1NC(=O)[C@H](CCC(N)=O)NC(=O)[C@H](CCC(=O)O)NC(=O)[C@H](CCC(=O)O)NC(=O)[C@H](CCCCN)NC(=O)[C@@H]2CCCN2C(=O)[C@H](CC(C)C)NC(=O)[C@@H](NC(=O)[C@@H](N)CO)CSSC[C@@H](C(=O)N[C@@H](CCCNC(=N)N)C(=O)N[C@@H](CCCNC(=N)N)C(=O)N[C@@H](CCCCN)C(=O)N[C@@H](CCCCN)C(=O)O)NC(=O)[C@H](CCCCN)NC(=O)[C@H](CCCNC(=N)N)NC(=O)CNC(=O)[C@H](CCCNC(=N)N)NC(=O)[C@H]([C@@H](C)O)NC(=O)[C@H](CO)NC(=O)[C@H](CCCCN)NC(=O)CNC1=O", "system": "ATCC 8530", "setting": "MBC, 2 h, pH 7.4, 37 °C, with: LPS Escherichia coli 026:B6, peptide:LPS 1:1 w/w", "endpoint": "antibacterial activity", "result": "no inhibition"}
{"Compound": "Cc1cc(=O)nc(NC(=O)NCCCCCCNC(=O)NCCCCCCNC(=O)OCCOCCOCCOCCOCCOCCOCC(=O)N[C@@H](CCCCN)C(=O)N[C@@H](CCCCN)C(=O)N[C@@H](Cc2ccccc2)C(=O)N2CCC[C@H]2C(=O)N[C@@H](Cc2c[nH]c3ccccc23)C(=O)N[C@@H](Cc2c[nH]c3ccccc23)C(=O)N[C@@H](Cc2c[nH]c3ccccc23)C(=O)N2CCC[C@H]2C(=O)N[C@@H](Cc2ccccc2)C(=O)N[C@@H](CCCCN)C(=O)N[C@@H](CCCCN)C(N)=O)[nH]1", "system": "MSSA RN 4220, RPMI medium", "setting": "24 h, 37 °C", "endpoint": "LC99.9", "result": "15 to 30 µM"}
{"Compound": "CCc1[nH]c(C(=O)N[C@@H]2CCN(c3nnc(C(C)(C)O)s3)C[C@@H]2OC)nc1Cl", "system": "MRSA ATCC 43300, mice, sepsis model", "setting": "intragastric, 10 mg/kg, day 3", "endpoint": "survival", "result": "50%"}
{"Compound": "CC[C@H](C)[C@H](NC(=O)[C@H](CCCCN)NC(=O)[C@H](CCCCN)NC(=O)[C@H](CC(C)C)NC(=O)[C@H](CCCCN)NC(=O)[C@H](CCC(=O)O)NC(=O)[C@H](CCCCN)NC(=O)[C@@H](NC(=O)[C@H](CCCCN)NC(=O)[C@H](CC(N)=O)NC(=O)[C@H](CCCNC(=N)N)NC(=O)[C@H](Cc1ccccc1)NC(=O)[C@H](CCCCN)NC(=O)[C@H](CCCNC(=N)N)NC(=O)[C@H](CC(C)C)NC(=O)[C@H](CCCNC(=N)N)NC(=O)[C@H](CCCCN)NC(=O)[C@H](CCCNC(=N)N)NC(=O)[C@H](CC(C)C)NC(=O)[C@@H](N)CCCNC(=N)N)[C@@H](C)CC)C(=O)NCC(=O)N[C@@H](CCC(N)=O)C(=O)N[C@@H](CCCCN)C(=O)N[C@H](C(=O)N[C@@H](CCC(N)=O)C(=O)NCC(=O)N[C@@H](Cc1ccccc1)C(=O)N[C@H](C(=O)N1CCC[C@H]1C(=O)N[C@@H](CCCCN)C(=O)N[C@@H](CC(C)C)C(=O)N[C@@H](CCC(N)=O)C(=O)N1CCC[C@H]1C(=O)N[C@@H](CO)C(=O)N[C@@H](CCCCN)C(=O)N[C@@H](CCC(N)=O)C(=O)N[C@@H](CO)C(=O)O)C(C)C)[C@@H](C)CC", "test": "inhibition zone", "system": "MRSA P1374", "endpoint": "lethal concentration", "result": "2.13 µM"}
{"Compound": "C=Cc1cc(OC)c2c(c1)c(=O)oc1c2cc(OC)c2c(O)ccc([C@@H]3O[C@H](C)[C@H](O)[C@@](C)(O)[C@H]3O)c21", "test": "crystal violet", "system": "MRSA USA300", "setting": "2 × MIC, 24 h", "endpoint": "biofilm eradication", "result": "88%"}
{"Compound": "c1ccc(CN2CCOCCOCCN(CCCCCCCCCCCCN3CCOCCOCCN(CCCCCCCCCCCCN4CCOCCOCCN(Cc5ccccc5)CCOCCOCC4)CCOCCOCC3)CCOCCOCC2)cc1", "test": "ethidium bromide activity", "system": "1199B", "setting": "half MIC, with: ethidium bromide", "scale": "reference: ethidium bromide alone", "endpoint": "fold enhancement", "result": "8 fold"}
{"note": "A few entries again:"}
{"Compound": "CC[C@H](C)[C@H](NC(=O)[C@H](CCCCN)NC(=O)[C@H](CCCCN)NC(=O)[C@H](CC(C)C)NC(=O)[C@H](CCCCN)NC(=O)[C@H](CCC(=O)O)NC(=O)[C@H](CCCCN)NC(=O)[C@@H](NC(=O)[C@H](CCCCN)NC(=O)[C@H](CC(N)=O)NC(=O)[C@H](CCCNC(=N)N)NC(=O)[C@H](Cc1ccccc1)NC(=O)[C@H](CCCCN)NC(=O)[C@H](CCCNC(=N)N)NC(=O)[C@H](CC(C)C)NC(=O)[C@H](CCCNC(=N)N)NC(=O)[C@H](CCCCN)NC(=O)[C@H](CCCNC(=N)N)NC(=O)[C@H](CC(C)C)NC(=O)[C@@H](N)CCCNC(=N)N)[C@@H](C)CC)C(=O)NCC(=O)N[C@@H](CCC(N)=O)C(=O)N[C@@H](CCCCN)C(=O)N[C@H](C(=O)N[C@@H](CCC(N)=O)C(=O)NCC(=O)N[C@@H](Cc1ccccc1)C(=O)N[C@H](C(=O)N1CCC[C@H]1C(=O)N[C@@H](CCCCN)C(=O)N[C@@H](CC(C)C)C(=O)N[C@@H](CCC(N)=O)C(=O)N1CCC[C@H]1C(=O)N[C@@H](CO)C(=O)N[C@@H](CCCCN)C(=O)N[C@@H](CCC(N)=O)C(=O)N[C@@H](CO)C(=O)O)C(C)C)[C@@H](C)CC", "test": "inhibition zone", "system": "MRSA P1374", "endpoint": "lethal concentration", "result": "2.13 µM"}
